Published values gathered from unrelated publications.
± marks the error that the study gave.
Organism: Salmonella typhimurium

| Structure (SMILES) | test | system | conditions | how to read | quantity | result |
| --- | --- | --- | --- | --- | --- | --- |
| O=[N+]([O-])c1ccc(N2CCC(NCCC(O)c3ccc(F)c4ccccc34)CC2)c(C(F)(F)F)c1 (stereo not drawn) | SOS response, SOS/umu test | TA1535/pSK1002, TGA medium | 0.001 mg/mL, 4 h, added: rat liver S9 | relative to: untreated | induction factor | 0.71 |
| N#C[C@@]1(n2ccc(N)nc2=O)O[C@H](CO)[C@@H](O)[C@H]1O |  | TA1537 | 1.2 µM, without S9 |  | viability | 91% |
| COCCN(CCOC)N=O | mutagenicity, Ames plate incorporation | TA100 | 5000 µg/plate, 3 d, without S9, methanol |  | revertant colonies per plate | 150 ± 12 |
| OC(CCN1CC=C(c2ccc(F)cc2)CC1)c1ccc(F)c2ccccc12 (stereo not drawn) | SOS/umu test | TA1535/pSK1002 | 0.063 mg/mL, 4 h, with S9, lower range |  | survival | 84.3% |
| CC(C)N(C)N=O | mutagenicity, Ames plate incorporation | TA1535 | 2500 µg/plate, 3 d, without S9, methanol |  | revertant colonies per plate | 25.7 ± 7 |
| COc1cccc(-c2n[nH]c(SCc3ccccn3)n2)c1OC | Ames test, preincubation | TA98 | 0.13 mg/plate, with rat liver S9 |  | revertant colonies per plate | 25 |
| CC(=O)N1CCC(C(=O)N2CCN3C(=O)c4cc(-c5ccccc5)ccc4NC(=O)C3C2)CC1 (stereo not drawn) |  | TA98 | 15.8 µg/plate, added: rat liver S9 | relative to: vehicle | fold increase in revertants | 1 |
| Cc1cc(C(=O)NC(C)(C)COc2cccc3c2C(N)=NS(=O)(=O)N3)cc(C)n1 | Ames test, confirmatory | TA98 | 100 µg/plate, added: rat liver S9 | relative to: solvent control | revertant ratio | 0.9 |
| O=[N+]([O-])c1ccc(N2CCN(CCC(O)c3ccc(F)cc3)CC2)c(C(F)(F)F)c1 (stereo not drawn) | genotoxicity, SOS/umu test | TA1535/pSK1002 | 0.002 mg/mL, 4 h, without S9, full range |  | induction factor | 1.1 |
| CN(N=O)c1ccc(F)cc1 | mutagenicity, Ames plate incorporation | TA98 | 500 µg/plate, 3 d, without S9, methanol |  | revertant colonies per plate | 20 ± 5 |
| Fc1ccc(C2=CCNCC2)cc1 | SOS/umu test | TA1535/pSK1002 | 0.004 mg/mL, 4 h, with S9, full range |  | survival | 94.2% |
| CN(CC(C)(C)C)N=O | mutagenicity, Ames plate incorporation | TA1535 | 2500 µg/plate, without S9, methanol |  | revertant colonies per plate | 33 ± 4 |

Repeated from above:
| Structure (SMILES) | test | system | conditions | how to read | quantity | result |
| --- | --- | --- | --- | --- | --- | --- |
| O=[N+]([O-])c1ccc(N2CCC(NCCC(O)c3ccc(F)c4ccccc34)CC2)c(C(F)(F)F)c1 (stereo not drawn) | SOS response, SOS/umu test | TA1535/pSK1002, TGA medium | 0.001 mg/mL, 4 h, added: rat liver S9 | relative to: untreated | induction factor | 0.71 |
